# Results collected from several papers.
# Each numbered part is a random draw from the data of one study; scales do not carry over between parts.

# Set 1 — method: universal PBM; molecule type: double-stranded DNA, one strand shown; matrix: in vitro; concentration: 600 nM; direction: higher = stronger binding
# Target: Sal-like protein 4, full length isoform A (SALL4, Homo sapiens, UniProt Q9UJQ4, residues 1-1053)
# Sequence of UniProt Q9UJQ4 (whole entry, looked up): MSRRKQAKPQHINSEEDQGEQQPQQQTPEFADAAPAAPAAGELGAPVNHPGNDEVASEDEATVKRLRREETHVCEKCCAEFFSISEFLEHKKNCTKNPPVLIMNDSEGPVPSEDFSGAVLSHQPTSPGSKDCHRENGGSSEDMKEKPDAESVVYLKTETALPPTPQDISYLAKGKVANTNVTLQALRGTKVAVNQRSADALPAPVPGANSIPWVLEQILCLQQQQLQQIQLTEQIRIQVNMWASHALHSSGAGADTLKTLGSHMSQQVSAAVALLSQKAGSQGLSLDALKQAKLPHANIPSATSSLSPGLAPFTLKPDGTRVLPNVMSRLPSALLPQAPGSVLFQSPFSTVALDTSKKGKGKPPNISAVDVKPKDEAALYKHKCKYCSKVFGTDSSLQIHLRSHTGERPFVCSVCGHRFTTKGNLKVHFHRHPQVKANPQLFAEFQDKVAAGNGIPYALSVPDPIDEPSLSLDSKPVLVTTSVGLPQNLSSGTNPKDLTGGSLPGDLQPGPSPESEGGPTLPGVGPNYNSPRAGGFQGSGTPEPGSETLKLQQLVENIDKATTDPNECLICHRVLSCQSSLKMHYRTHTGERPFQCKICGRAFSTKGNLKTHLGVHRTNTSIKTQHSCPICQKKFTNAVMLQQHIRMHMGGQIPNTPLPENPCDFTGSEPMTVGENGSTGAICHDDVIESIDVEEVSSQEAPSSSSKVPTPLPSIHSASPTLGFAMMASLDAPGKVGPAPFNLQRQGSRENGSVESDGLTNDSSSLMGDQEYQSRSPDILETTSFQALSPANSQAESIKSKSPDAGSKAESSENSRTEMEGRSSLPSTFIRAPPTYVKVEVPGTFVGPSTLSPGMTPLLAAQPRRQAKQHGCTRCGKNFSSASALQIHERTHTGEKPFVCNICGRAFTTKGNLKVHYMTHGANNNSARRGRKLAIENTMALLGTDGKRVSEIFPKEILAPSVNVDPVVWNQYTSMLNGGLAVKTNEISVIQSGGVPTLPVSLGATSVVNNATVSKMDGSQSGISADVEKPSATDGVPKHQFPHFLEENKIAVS
# Setting: 8-mer, flanks averaged, mean of replicates
Sequence,E-score
CCTACAAC,0.0576
AATGGCCT,-0.00758
GGTGTAAA,0.0121
GCCACAAC,0.0347
GCGAGGTA,-0.103

# Set 2 — method: RNA Bind-n-Seq; molecule type: RNA; matrix: in vitro; concentration: 365 nM; baseline: no-protein control; direction: higher = stronger binding
# Target: RNA binding protein fox-1 homolog 2, RRM domain, GST-SBP tag (RBFOX2, Homo sapiens, UniProt O43251-10, residues 100-194)
# Setting: natural RNA segment, single round, ends assumed
# Constant ends, left off below: GGGAGUUCUACAGUCCGACGAUC … UGGAAUUCUCGGGUGCCAA
# Construct (chain): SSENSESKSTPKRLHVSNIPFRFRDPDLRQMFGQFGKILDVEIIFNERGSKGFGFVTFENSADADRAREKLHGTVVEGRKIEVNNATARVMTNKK
Sequence,RBNS enrichment (R)
ACUGAUCUUUUAAUGGAAUUUCUUUGAAAUCAAAUCCAUAACUGAUUCUAUUAAGAUACAAUAGCUAAAGUUGGGGAAUAACUUCAGGUAAAAACUGCAAGUCUUGAAGA,0.292
CUUCCCUCCCUUUACUUCUGUUGCCUUGUGUAUAAAACUGCCCCCAGCUUGCCUAGAGACGUUGCCUUCAUCAGAGAAGACUCCAUUAAUUCAGUGUCCCAAUGGUGUCC,1.79
UUUGGUAAUAUGUUAGCUCUCAUUGGACAAGAUAGACGCCAUAUAGGAGGCUGAGGGUUAGGACACAGUAAAAUGAAUUUAACAGUUUCACUGCUUUCUCAAGUAGUUUU,0.742
UGAUCUAUUUCAGUAAAUCUCUUGGGACCACCAGUAUUUGGAUCUGACCUUGGUAGGACUAAAGUAUUGGGCAGAGCAGCAGCAGUCCCAGGUUUUGUUUGACCUGUGUA,0.326
AACCAUAGGCCUGAAGUUCACAUUGGGUCUUUAAAUCUUUUAGAUAUAUACUGGUCAUUUCAGAAAAUUCUUCAUAGUGGUAUUGGCCUUAUAUUUAACUUUUUUUUUAU,0.593

# Set 3 — method: protein-binding microarray; molecule type: double-stranded DNA, one strand shown; matrix: in vitro; concentration: not given; direction: higher = stronger binding
# Target: Protein C-ets-1 (ETS1, Homo sapiens, UniProt P14921, residues 1-441, full length assumed)
# Sequence of UniProt P14921 (whole entry, looked up): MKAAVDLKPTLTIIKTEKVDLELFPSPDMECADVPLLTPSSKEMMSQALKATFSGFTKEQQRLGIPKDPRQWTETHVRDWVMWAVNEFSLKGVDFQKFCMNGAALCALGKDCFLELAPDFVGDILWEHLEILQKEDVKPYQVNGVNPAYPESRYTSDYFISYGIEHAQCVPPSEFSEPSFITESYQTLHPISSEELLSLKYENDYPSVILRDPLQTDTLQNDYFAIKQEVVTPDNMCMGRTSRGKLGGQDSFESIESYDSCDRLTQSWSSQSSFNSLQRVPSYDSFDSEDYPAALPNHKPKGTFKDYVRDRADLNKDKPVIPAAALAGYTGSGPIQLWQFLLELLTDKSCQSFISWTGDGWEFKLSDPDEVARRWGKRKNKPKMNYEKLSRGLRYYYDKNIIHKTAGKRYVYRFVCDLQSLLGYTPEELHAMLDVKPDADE
# Setting: k-mer, scored over probes, only values ≥0.25
Sequence,E-score
GACGGAAC,0.269
AACCGGAT,0.479
ACGGAAAC,0.461
CCTTCCCG,0.259
GTAGCGGA,0.279

# Single results of other studies
Molecule,target,test,system,conditions,scale,quantity,result
"PhoQ, residues 284 288 289 292 302 303 TTSMTC","PhoP, residues 12 14 15 18 19 NFCKL (Escherichia coli, UniProt P23836)","Sort-seq, measured: YFP reporter",E. coli,"PhoQ-PhoP variant library, with: 10 µM Mg2+","baseline: high Mg2+ state, higher = stronger signaling",fold induction,14.4

# Some of these lines once more (set 2):
Sequence,RBNS enrichment (R)
ACUGAUCUUUUAAUGGAAUUUCUUUGAAAUCAAAUCCAUAACUGAUUCUAUUAAGAUACAAUAGCUAAAGUUGGGGAAUAACUUCAGGUAAAAACUGCAAGUCUUGAAGA,0.292
